Published values of several laboratories.
Numbers after ± are the reported error.

With `COc1cc(-c2oc3cc(O)cc(O)c3c(=O)c2O[C@@H]2O[C@H](CO)[C@@H](O)[C@H](O)[C@H]2OC(=O)c2cc(O)c(O)c(O)c2)ccc1O` the EC50 was 2500 ± 19 nM (Influenza A virus; viral replication; MDCK, A/Tern/South Africa/1/61(H5N3)).
For `CCN1CCC(CN2c3ccccc3Sc3ccccc32)C1` (centres unmarked), the EC50 was 13100 ± 8800 nM (SARS coronavirus; Vero 76, Urbani).
`CC(C)c1ccc2c(c1)CC[C@H]1[C@](C)(C(=O)OCC#CCN3CCCC3)CCC[C@]21C` has an EC50 of 11100 nM (SARS-CoV-2 pseudovirus; viral replication).
With `Cc1ccc(NS(=O)(=O)c2c(C(=O)N3CCCCCC3)c(C)n(C)c2C)c(Cl)c1` the EC50 was 150 to 1500 nM (Vaccinia virus; viral replication).
For `Nc1ccn(C[C@@H](CO)OCP(=O)(O)OCCCS(=O)(=O)CCCCCCCCCCCCCC2CCC2)c(=O)n1`, the EC50 was 8950 nM (vaccinia virus; viral replication; HFF, Copenhagen).
For `Nc1nc(Nc2ccc(Cl)cc2)nn1S(=O)(=O)c1ccc2ccccc2c1`, the EC50 was > 7000 nM (Powassan virus; viral replication; BHK-21, LB).
`O=S(=O)(O)c1c2ccccc2c(-c2c3nc(c(-c4c5ccccc5c(S(=O)(=O)O)c5ccccc45)c4ccc([nH]4)c(-c4c5ccccc5c(S(=O)(=O)O)c5ccccc45)c4nc(c(-c5c6ccccc6c(S(=O)(=O)O)c6ccccc56)c5ccc2[nH]5)C=C4)C=C3)c2ccccc12` has an EC50 of 0.55 ± 0.14 µg/mL (vaccinia virus; extracellular enveloped virus; BSC-40, IHD-J).
`CCOC(=O)C1(Cc2ccccc2)Oc2cc(F)ccc2N(Cc2ccccc2)C1=O` (centres unmarked) has an EC50 of > 128 µg/mL (Xanthomonas oryzae pv. oryzicola; bacterial growth).
For `O=C1/C(=N\NC(=S)NN=Cc2cccs2)c2ccccc2N1Cc1ccccc1`, the EC50 was > 20000 nM (vaccinia virus; viral cytopathogenicity; HEL).
For `CC(NC(=O)Nc1ccc(Br)cc1)c1c(-n2cccc2)sc2c1CCCC2` (centres unmarked), the EC50 was 950 nM (MERS-CoV; viral replication; Vero; 24 h).
`CC(NC(=O)NNS(=O)(=O)c1ccc(OC(F)F)cc1)(C(F)(F)F)C(F)(F)F` has an EC50 of 1000 nM (Mammarenavirus guanaritoense; viral replication; Vero).
With `C1CCCCCC2(CCCCC1)OOCCCOO2` the EC50 was 14000 nM (Japanese encephalitis virus; replicon RNA replication, firefly luciferase reporter; BHK (JEV replicon); 72 h).
`CO/C1=C\C(C)=C\[C@@H](C)[C@@H](O)[C@@H](C)C/C(C)=C/C=C/[C@H](OC)[C@@H]([C@@H](C)[C@@H](O)[C@H](C)C(=O)/C=C/[C@H](C)[C@H](O)C(C)C)OC1=O` gave an EC50 of 22 nM (SARS-CoV-2 Omicron BA.2; viral replication, dsRNA staining; Calu-3).
`COc1cc(-c2oc3cc(O)cc(O)c3c(=O)c2O[C@@H]2O[C@H](CO)[C@@H](O)[C@H](OC(C)=O)[C@H]2O)ccc1O` gave an EC50 of 24000 ± 350 nM (Influenza A virus; viral replication; MDCK, A/Tern/South Africa/1/61(H5N3)).
With `CCC(NC(=O)NNS(=O)(=O)c1ccc(C)cc1)(C(F)(F)F)C(F)(F)F` the EC50 was 150 nM (Mammarenavirus machupoense; viral replication; Vero).
For `O=S(=O)(O)c1cccc(-c2c3nc(c(-c4cccc(S(=O)(=O)O)c4Cl)c4ccc([nH]4)c(-c4cccc(S(=O)(=O)O)c4Cl)c4nc(c(-c5cccc(S(=O)(=O)O)c5Cl)c5ccc2[nH]5)C=C4)C=C3)c1Cl`, the EC50 was 1 ± 0.2 µg/mL (vaccinia virus; viral replication; CV-1, Western Reserve).
For `CCOC(=O)[C@@H](C)NP(=O)(CO[C@H](CF)Cn1cnc(N)nc1=O)N[C@H](C)C(=O)OCC`, the EC50 was > 100000 nM (Vaccinia virus; viral replication; HEL).
`C=CCN1C(=O)C(CC=C)(C(=O)OCC)Oc2cc(F)ccc21` (centres unmarked) has an EC50 of > 128 µg/mL (Xanthomonas oryzae; microbial growth).
The EC50 of `O=C[C@H](C[C@@H]1CCNC1=O)NC(=O)[C@H](Cc1ccccc1)NC(=O)/C=C/c1cccc(Br)c1` is reported as 1400 nM (Middle East respiratory syndrome-related coronavirus; viral replication; Huh-7; 48 h).
`COc1c(CNC(=O)c2cc(C3CC3)nn2C)cccc1OC(F)(F)F` has an EC50 of 25 nM (swine influenza virus; viral replication; MDCK, SIV/SK wild type).
`COc1cc(-c2oc3cc(O[C@@H]4O[C@@H](C)[C@H](O)[C@@H](O)[C@H]4O)cc(O)c3c(=O)c2O[C@@H]2O[C@H](CO)[C@@H](O)[C@H](O)[C@H]2OC(=O)c2cc(O)c(O)c(O)c2)ccc1O` has an EC50 of 166200 ± 760 nM (Influenza A virus; viral replication; MDCK, A/Tern/South Africa/1/61(H5N3)).
`C#CCN1C(=O)C(CC#C)(C(=O)OCC)Oc2ccccc21` (centres unmarked) has an EC50 of > 128 µg/mL (Xanthomonas oryzae pv. oryzicola; bacterial growth).
`CC(C)Oc1ccc(-n2cnc3cc(/C=C\c4ccc(C(C)(C)O)cc4)ccc32)cc1` gave an EC50 of 0.94 ± 0.96 nM (Mammarenavirus lassaense; pseudovirus entry; glycoprotein pseudotyped particles).
The EC50 of `CC(=O)OC1(C)CC(C=C(C)CCC=C(C)C)OC2(C=C(CO)C3CC(=O)C(C)=CC3O2)C1` (centres unmarked) is reported as 400 nM (SARS-CoV-2 Omicron BA.1; viral replication, dsRNA staining; Calu-3).
For `CC(C)OC(=O)[C@H](Cc1ccccc1)NP(=O)(COCCn1cnc2c(=O)[nH]c(=O)[nH]c21)N[C@@H](Cc1ccccc1)C(=O)OC(C)C`, the EC50 was > 100000 nM (Vaccinia virus; HEL).
The EC50 of `CCC[C@H](NC(=O)[C@H](CC(C)C)NC(=O)OCc1ccccc1)C(=O)C(=O)NCc1ccccn1` is reported as 1060 ± 140 nM (SARS coronavirus; viral replication; Vero 76; 96 h).
The EC50 of `COc1ccc(-c2c3nc(c(-c4ccc(OC)c(S(=O)(=O)O)c4)c4ccc([nH]4)c(-c4ccc(OC)c(S(=O)(=O)O)c4)c4nc(c(-c5ccc(OC)c(S(=O)(=O)O)c5)c5ccc2[nH]5)C=C4)C=C3)cc1S(=O)(=O)O` is reported as 0.5 ± 0.1 µg/mL (vaccinia virus; extracellular enveloped virus; CV-1, IHD-J).
For `COc1cc(-c2oc3cc(O)cc(O)c3c(=O)c2O[C@@H]2O[C@H](CO[C@@H]3O[C@@H](C)[C@H](O)[C@@H](O)[C@H]3O)[C@@H](O)[C@H](OC(C)=O)[C@H]2O)ccc1O`, the EC50 was 135100 ± 670 nM (Influenza A virus; viral replication; MDCK, A/Tern/South Africa/1/61(H5N3)).
`O=S(=O)(O)c1cccc(-c2c3nc(c(-c4cccc(S(=O)(=O)O)c4F)c4ccc([nH]4)c(-c4cccc(S(=O)(=O)O)c4F)c4nc(c(-c5cccc(S(=O)(=O)O)c5F)c5ccc2[nH]5)C=C4)C=C3)c1F` gave an EC50 of 1.1 ± 0.5 µg/mL (vaccinia virus; extracellular enveloped virus; CV-1, IHD-J).
With `[N-]=[N+]=N[C@]1(CO)O[C@@H](n2ccc(N)nc2=O)C(F)(F)[C@@H]1O` the EC50 was 370 ± 110 nM (Nipah virus; viral replication; NCI-H358).
`Oc1cccc(O)c1-c1c2nc(c(-c3c(O)cccc3O)c3ccc([nH]3)c(-c3c(O)cccc3O)c3nc(c(-c4c(O)cccc4O)c4ccc1[nH]4)C=C3)C=C2` gave an EC50 of 0.19 ± 0.03 µg/mL (vaccinia virus; viral replication; BSC-40, Western Reserve).
With `Cc1cn(C2CC(N(C)C)C(CO)O2)c(=O)[nH]c1=O` (centres unmarked) the EC50 was > 370 nM (vaccinia virus; viral replication; HEL).

Repeated from above:
For `Nc1nc(Nc2ccc(Cl)cc2)nn1S(=O)(=O)c1ccc2ccccc2c1`, the EC50 was > 7000 nM (Powassan virus; viral replication; BHK-21, LB).
With `C1CCCCCC2(CCCCC1)OOCCCOO2` the EC50 was 14000 nM (Japanese encephalitis virus; replicon RNA replication, firefly luciferase reporter; BHK (JEV replicon); 72 h).
For `CC(C)OC(=O)[C@H](Cc1ccccc1)NP(=O)(COCCn1cnc2c(=O)[nH]c(=O)[nH]c21)N[C@@H](Cc1ccccc1)C(=O)OC(C)C`, the EC50 was > 100000 nM (Vaccinia virus; HEL).
`CO/C1=C\C(C)=C\[C@@H](C)[C@@H](O)[C@@H](C)C/C(C)=C/C=C/[C@H](OC)[C@@H]([C@@H](C)[C@@H](O)[C@H](C)C(=O)/C=C/[C@H](C)[C@H](O)C(C)C)OC1=O` gave an EC50 of 22 nM (SARS-CoV-2 Omicron BA.2; viral replication, dsRNA staining; Calu-3).
`CC(C)c1ccc2c(c1)CC[C@H]1[C@](C)(C(=O)OCC#CCN3CCCC3)CCC[C@]21C` has an EC50 of 11100 nM (SARS-CoV-2 pseudovirus; viral replication).
